Published values from different studies.
Compare with care: the assays were run in different laboratories. Numbers after ± are the reported error.
NOD2: Nucleotide-binding oligomerization domain-containing protein 2 (NOD2, Homo sapiens, UniProt Q9HC29)
UniProt Q9HC29, sequence (whole entry, looked up): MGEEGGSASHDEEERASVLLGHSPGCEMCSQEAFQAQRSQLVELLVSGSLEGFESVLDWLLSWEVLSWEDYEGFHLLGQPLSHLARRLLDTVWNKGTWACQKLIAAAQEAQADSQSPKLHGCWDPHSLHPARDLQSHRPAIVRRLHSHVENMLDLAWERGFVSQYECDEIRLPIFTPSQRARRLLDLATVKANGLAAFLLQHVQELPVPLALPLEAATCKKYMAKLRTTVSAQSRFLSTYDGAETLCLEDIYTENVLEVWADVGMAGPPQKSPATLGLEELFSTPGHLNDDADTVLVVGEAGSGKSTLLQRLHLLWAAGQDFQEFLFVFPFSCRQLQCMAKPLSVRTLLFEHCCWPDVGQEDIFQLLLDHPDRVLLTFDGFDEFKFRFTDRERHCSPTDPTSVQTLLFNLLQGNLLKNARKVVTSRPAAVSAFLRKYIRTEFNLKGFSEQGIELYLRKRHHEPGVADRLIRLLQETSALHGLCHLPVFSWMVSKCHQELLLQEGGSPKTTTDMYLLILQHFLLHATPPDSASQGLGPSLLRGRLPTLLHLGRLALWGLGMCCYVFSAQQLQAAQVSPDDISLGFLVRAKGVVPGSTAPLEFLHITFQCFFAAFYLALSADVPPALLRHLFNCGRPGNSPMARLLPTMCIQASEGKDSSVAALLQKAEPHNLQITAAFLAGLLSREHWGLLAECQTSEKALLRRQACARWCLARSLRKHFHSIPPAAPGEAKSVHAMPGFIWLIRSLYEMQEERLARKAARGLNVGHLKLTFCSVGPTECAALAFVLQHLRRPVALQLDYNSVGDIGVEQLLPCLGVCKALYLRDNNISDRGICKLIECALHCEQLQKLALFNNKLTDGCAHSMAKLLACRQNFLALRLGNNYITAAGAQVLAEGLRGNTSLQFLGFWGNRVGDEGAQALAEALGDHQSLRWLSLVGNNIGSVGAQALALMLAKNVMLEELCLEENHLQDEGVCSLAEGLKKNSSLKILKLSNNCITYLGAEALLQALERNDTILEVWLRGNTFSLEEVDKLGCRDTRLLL
CHRM2: Muscarinic acetylcholine receptor M2 (CHRM2, Homo sapiens, UniProt P08172)
UniProt P08172, sequence (whole entry, looked up): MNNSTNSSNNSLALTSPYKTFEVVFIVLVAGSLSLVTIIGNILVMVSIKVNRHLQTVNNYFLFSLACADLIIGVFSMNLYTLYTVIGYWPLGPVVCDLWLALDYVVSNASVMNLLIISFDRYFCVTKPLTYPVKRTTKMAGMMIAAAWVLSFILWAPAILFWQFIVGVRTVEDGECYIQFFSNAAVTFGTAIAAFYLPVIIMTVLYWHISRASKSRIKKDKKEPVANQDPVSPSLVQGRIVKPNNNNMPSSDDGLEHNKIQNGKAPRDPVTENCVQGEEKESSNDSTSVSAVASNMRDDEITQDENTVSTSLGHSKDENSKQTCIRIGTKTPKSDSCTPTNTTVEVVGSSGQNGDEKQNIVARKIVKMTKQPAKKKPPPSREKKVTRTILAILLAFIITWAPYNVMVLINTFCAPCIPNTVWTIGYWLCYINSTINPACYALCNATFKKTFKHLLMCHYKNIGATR
AURKA: Aurora kinase A (AURKA, Homo sapiens, UniProt O14965)
UniProt O14965, sequence (whole entry, looked up): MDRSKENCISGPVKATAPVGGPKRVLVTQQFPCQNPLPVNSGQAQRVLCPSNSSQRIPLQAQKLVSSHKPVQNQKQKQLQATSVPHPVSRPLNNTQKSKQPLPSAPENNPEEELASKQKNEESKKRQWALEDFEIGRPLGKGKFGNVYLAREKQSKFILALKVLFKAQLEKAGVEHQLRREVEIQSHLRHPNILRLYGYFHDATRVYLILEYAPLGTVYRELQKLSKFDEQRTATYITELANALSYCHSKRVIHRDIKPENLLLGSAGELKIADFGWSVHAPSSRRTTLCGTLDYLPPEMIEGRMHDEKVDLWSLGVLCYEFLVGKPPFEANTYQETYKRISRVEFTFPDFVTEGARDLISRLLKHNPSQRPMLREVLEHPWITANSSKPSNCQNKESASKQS
UniProt Q9Y657, sequence (whole entry, looked up): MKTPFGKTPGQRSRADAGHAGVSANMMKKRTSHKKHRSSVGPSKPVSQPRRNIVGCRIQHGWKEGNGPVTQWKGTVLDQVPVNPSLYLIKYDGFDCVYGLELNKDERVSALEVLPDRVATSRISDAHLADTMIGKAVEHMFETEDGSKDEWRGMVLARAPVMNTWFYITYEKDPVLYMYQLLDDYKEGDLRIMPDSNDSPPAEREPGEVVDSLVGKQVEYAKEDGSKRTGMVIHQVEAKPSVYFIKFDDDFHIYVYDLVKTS
UniProt P32249, sequence (whole entry, looked up): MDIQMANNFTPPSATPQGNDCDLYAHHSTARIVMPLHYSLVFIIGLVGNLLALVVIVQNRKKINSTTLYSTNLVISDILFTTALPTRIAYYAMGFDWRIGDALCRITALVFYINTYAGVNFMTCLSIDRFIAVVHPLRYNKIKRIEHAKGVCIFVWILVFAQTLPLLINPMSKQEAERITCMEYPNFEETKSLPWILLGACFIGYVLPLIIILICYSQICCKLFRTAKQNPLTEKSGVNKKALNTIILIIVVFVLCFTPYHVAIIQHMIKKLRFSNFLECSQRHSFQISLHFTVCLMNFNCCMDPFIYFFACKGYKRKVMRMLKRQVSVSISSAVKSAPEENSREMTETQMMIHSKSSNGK
UniProt P51449, sequence (whole entry, looked up): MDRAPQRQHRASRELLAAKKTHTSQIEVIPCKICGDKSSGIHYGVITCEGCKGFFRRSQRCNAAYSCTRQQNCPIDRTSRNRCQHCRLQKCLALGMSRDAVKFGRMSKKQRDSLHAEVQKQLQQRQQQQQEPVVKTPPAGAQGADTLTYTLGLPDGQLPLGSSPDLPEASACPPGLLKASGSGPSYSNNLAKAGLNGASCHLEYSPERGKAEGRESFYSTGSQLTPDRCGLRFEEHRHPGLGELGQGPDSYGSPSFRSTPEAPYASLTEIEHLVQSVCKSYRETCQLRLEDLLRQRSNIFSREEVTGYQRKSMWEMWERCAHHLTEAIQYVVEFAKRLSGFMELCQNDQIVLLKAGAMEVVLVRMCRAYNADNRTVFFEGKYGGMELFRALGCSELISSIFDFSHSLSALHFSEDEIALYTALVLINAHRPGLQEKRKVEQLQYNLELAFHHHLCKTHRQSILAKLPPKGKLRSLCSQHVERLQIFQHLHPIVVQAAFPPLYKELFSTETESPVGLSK
UniProt P0C061, sequence (whole entry, looked up): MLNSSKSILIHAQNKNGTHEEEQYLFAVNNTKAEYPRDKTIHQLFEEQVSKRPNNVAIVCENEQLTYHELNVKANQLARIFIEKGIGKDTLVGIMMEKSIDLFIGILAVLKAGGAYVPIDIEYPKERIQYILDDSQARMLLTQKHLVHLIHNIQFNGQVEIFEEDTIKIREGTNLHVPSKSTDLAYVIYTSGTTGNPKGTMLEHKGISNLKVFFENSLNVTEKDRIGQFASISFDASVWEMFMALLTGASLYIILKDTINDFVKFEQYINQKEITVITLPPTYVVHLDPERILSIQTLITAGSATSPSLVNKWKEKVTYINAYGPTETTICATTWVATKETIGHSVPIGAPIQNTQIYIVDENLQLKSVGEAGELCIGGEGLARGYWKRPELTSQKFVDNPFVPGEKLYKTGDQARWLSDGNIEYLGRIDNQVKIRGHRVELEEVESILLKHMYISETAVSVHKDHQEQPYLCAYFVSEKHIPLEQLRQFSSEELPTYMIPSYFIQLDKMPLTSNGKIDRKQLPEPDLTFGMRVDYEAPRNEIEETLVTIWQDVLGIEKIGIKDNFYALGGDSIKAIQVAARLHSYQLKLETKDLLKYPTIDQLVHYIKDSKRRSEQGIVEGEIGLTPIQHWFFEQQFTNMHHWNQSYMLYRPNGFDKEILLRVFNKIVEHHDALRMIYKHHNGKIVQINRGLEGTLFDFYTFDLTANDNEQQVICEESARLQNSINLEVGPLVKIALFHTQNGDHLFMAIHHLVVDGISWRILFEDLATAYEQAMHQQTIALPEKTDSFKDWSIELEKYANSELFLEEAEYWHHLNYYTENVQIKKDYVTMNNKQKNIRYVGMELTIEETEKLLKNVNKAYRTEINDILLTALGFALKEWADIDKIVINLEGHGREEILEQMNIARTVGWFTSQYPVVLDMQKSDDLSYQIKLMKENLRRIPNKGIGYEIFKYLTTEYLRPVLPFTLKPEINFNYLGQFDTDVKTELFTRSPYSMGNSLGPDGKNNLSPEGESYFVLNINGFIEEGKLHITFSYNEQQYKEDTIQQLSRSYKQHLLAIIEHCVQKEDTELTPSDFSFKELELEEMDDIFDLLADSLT
UniProt P05093, sequence (whole entry, looked up): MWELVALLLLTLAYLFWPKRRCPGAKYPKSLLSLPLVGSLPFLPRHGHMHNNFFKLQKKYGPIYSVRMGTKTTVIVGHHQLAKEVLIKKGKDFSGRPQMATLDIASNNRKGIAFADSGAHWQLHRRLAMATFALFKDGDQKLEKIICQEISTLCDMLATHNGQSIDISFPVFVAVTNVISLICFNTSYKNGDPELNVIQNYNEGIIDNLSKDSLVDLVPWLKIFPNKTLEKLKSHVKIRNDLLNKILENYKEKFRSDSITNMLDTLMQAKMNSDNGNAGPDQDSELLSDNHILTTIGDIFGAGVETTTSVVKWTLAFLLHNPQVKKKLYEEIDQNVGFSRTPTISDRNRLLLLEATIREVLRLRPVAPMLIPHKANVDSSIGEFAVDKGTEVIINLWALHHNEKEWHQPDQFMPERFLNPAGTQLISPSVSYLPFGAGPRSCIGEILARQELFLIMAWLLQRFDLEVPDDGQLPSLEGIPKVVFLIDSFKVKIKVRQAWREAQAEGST
UniProt A2RI47, sequence (whole entry, looked up): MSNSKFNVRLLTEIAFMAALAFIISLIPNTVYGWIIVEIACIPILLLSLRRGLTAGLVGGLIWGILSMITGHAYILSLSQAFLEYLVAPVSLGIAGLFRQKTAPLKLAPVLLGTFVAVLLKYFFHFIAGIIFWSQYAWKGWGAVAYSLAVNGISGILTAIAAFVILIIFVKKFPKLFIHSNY

CC(C)C[C@H](NC(=O)[C@@H](NC(=O)[C@@H]1CCCN1C(=O)[C@@H]1CCCN1C(=O)[C@@H]1CCCN1C(=O)[C@H](CC(N)=O)NC(=O)[C@@H]1CCCN1C(=O)[C@H](C)NC(=O)[C@@H]1CCCN1C(=O)CNC(=O)[C@H](CCCCN)NC(=O)[C@@H](N)[C@@H](C)O)C(C)C)C(=O)N[C@@H](CCCCN)C(=O)N[C@H](C(=O)O)C(C)C — Kd (PACSIN3 SH3 domain, chicken; binding; pH 7): 68.6 ± 5.7 µM
O=C(/C=C/c1ccc(Cl)cc1)N1CCC2(CC1)CN(Cc1ccc(Cl)c(Cl)c1)C(=O)O2 — Kd (G-protein coupled receptor 183 (GPR183, Homo sapiens, UniProt P32249); antagonist, Schild analysis; with: 7α,25-OHC): 0.064 µM
CCCCSC(=S)N1CCN(C(=O)/C=C/c2coc3ccccc3c2=O)CC1 — protective effect (tomato spotted wilt virus; viral infection, half-leaf method; Nicotiana glutinosa; 500 µg/mL): 43.3 ± 2.1%
COC(=O)CC[C@@H](NC(=O)[C@H](C)NC(=O)[C@@H](C)O[C@H]1[C@H](O)[C@@H](CN)OC(O)[C@@H]1NC(C)=O)C(N)=O (stereo partly shown) — Kd (NOD2; binding, SPR; pH 6.5): 0.012 to 0.024 µM
COc1cc(C2CC(=O)Nc3nc(N)[nH]c(=O)c32)ccc1O (stereo not shown) — Kd (uncharacterized protein (Leishmania donovani, UniProt A0A3Q8IA09); competitive ITC; with: aspartate 60 µM): 5.2 µM
CN(C)CCNC(=O)c1cccc2c(NCCCCc3c(N)nc(N)nc3N)c3ccccc3nc12 — Kd (RNA with C–C mismatch; binding, ITC; 25 °C, 1): 0.77 ± 0.28 µM
Cc1cccc(-c2cccc(C)n2)n1.Cc1cccc(-c2cccc(C)n2)n1.[Cl-].[Cl-].[Ru+2].c1ccc(-c2ccnc3c2ccc2c(-c4ccccc4)ccnc23)cc1 — EC50 (plasmid DNA binding, agarose gel electrophoresis; pUC19 plasmid DNA; pH 7.4, protected from light): 62.5 to 125 µM
NC(Cc1ccc(F)cc1)C(=O)O (racemic) — Kd (grsA (Aneurinibacillus migulanus, UniProt P0C061); binding, ITC): 600 µM
Cc1ncc(Cc2csc(C=NNC(=O)Cc3cccs3)c2C)c(N)n1 (mixture of isomers) — Kd (Thiamine transporter ThiT (Lactococcus lactis subsp. cremoris, UniProt A2RI47); binding, ITC): 5.3 µM
O=C(N/N=C/c1ncc[nH]1)c1cccs1 — Kd (1-deoxy-D-xylulose-5-phosphate synthase (dxs, Deinococcus radiodurans, UniProt Q9RUB5); binding, SPR): 8 µM
CCN(CC)CCO/N=C1/C=C2CCC3C(CC[C@]4(C)/C(=C/c5ccccn5)CCC34)[C@@]2(C)CC1 (stereo partly shown) — Kd (Steroid 17-alpha-hydroxylase/17,20 lyase (CYP17A1, Homo sapiens, UniProt P05093); binding, absorbance): 8.6 µM
C[C@H](N)C(=O)N[C@@H](CCCNC(=N)N)C(=O)N[C@H](C(=O)N[C@@H](CCCC[N+](C)(C)C)C(=O)N[C@@H](CCC(N)=O)C(=O)N[C@H](C(=O)N[C@@H](C)C(=O)N[C@@H](CCCNC(=N)N)C(=O)N[C@@H](CCCCN)C(=O)N[C@@H](CO)C(=O)O)[C@@H](C)O)[C@@H](C)O — Kd (Spindlin-1 (SPIN1, Homo sapiens, UniProt Q9Y657); binding, ITC; pH 7.5): 0.147 µM
N=C(NO)NCCC[C@H](N)C(=O)O — Kd (Arginase (Schistosoma mansoni, UniProt Q6WVP6); isothermal titration calorimetry; pH 8.5, second weaker binding site): 13 µM
C=C1C(=O)OC[C@H]1[C@H](c1cc(OC)c(OC)c(OC)c1)c1cc(OC)c2c(c1)OCO2 — Kd (Carnitine O-palmitoyltransferase 1, liver isoform (CPT1A, Homo sapiens, UniProt P50416); binding, MST; lysate): 1.62 µM
CCCCCCOc1ccc(C(=O)OCCN2CC=CCC2)cc1 — Kb (CHRM2; inositol phosphate accumulation, antagonist, Schild analysis; CHO co-expressing G15; with: carbachol): 1.86 µM
CCCC[C@H](NC(=O)CNC(=O)CNC(=O)CN1CCN(CC(=O)O)CCN(CC(=O)O)CCN(CC(=O)O)CC1)C(=O)N[C@H]1CC(=O)NCCCC[C@@H](C(N)=O)NC(=O)[C@H](Cc2c[nH]c3ccccc23)NC(=O)[C@H](CCCNC(=N)N)NC(=O)[C@@H](Cc2ccccc2)NC(=O)[C@H](Cc2c[nH]cn2)NC1=O [lutetium-177 labelled] — tissue uptake (C57 mouse, female, intestines; intravenous, 0.037 MBq, 2 h): 0.9 ± 0.18 %ID
Cc1nn(-c2cccc(N)c2)c(=O)c2cnc(Nc3ccc(N4CCNCC4)cc3)nc12 — Kd (pre-let-7d RNA; binding, SPR): 10.2 µM
N=C(N)NCCC[C@@H]1NC(=O)[C@H](Cc2c[nH]c3ccccc23)NC(=O)[C@@H](CC2CCCCC2)NC(=O)[C@@H]2CCCN2C(=O)[C@@H](NC(=O)CCc2ccccc2)CCCNC1=O — MRT(0-inf) (C57BL/6J mouse, plasma brain; subcutaneous, 1 mg/kg single dose): 1.85 h
C=CC(=O)Nc1cc(Nc2nccc(-c3cn(C)c4ccccc34)n2)c(OCC(F)(F)F)nc1N(C)CCN(C)C — activity vs control (Cytochrome P450 1A2 (CYP1A2, Homo sapiens, UniProt P05177); enzyme activity, inhibitor; human, liver microsomes; 33.3 µM): 78.3%
COc1ccc2occ(/C=C/C(=O)N3CCN(C(=S)SCCCN(C)C)CC3)c(=O)c2c1 — curative effect (tomato spotted wilt virus; viral infection, half-leaf method; Nicotiana glutinosa; 500 µg/mL): 62.5 ± 7.4%
COC(=O)Nc1ccc2c(c1)c(Cc1ccc(C(=O)NS(=O)(=O)c3ccc(C(F)(F)F)cc3)cc1OC)cn2C — Kd (Tumor necrosis factor receptor superfamily member 1A, extracellular domain (Homo sapiens, UniProt P19438); binding, 19F NMR; PBS; pH 7.4): 10 µM
CCCCCCCCCc1nc2cc(Cl)ccc2c(=O)n1CCN — Kd (Staphylococcus aureus membranes; membrane binding): 22 ± 1.7 µM
[64Cu+2].c1cnc(CNCc2ccc(CN3CCCN4CCNCCCN(CC4)CC3)cc2)nc1 — tissue uptake (CXCR4; NOD/SCID mouse, U87 and U87-stb-CXCR4 xenografts, muscle; iv, 30 min, ex vivo): 0.49 ± 0.03 %ID/g
COc1ccc(C(=O)Nc2cc(-c3ccc(I)cc3)no2)cc1 [iodine-125 labelled] — Kd (Alpha-synuclein, fibrils (SNCA, Homo sapiens, UniProt P37840); radioligand, radioligand saturation binding; SNCA 50 nM): 0.00048 ± 8e-05 µM
N[C@@H](CN[C@@H](CN[C@@H](CC(=O)O)C(=O)O)C(=O)O)C(=O)O — Kd (Zn2+; binding, PAR competition; 3 h, pH 7.5, 25 °C): 0.0001 ± 2e-05 µM
CN1C(=O)[C@@H](Cc2ccc(O)cc2)NC(=O)CNC(=O)[C@H](Cc2ccc3ccccc3c2)NC(=O)[C@H](CCCNC(=N)N)NC(=O)[C@H]1CCCNC(=O)c1ccc(CNC(=O)CN2CCN(CC(=O)O)CCN(CC(=O)O)CCN(CC(=O)O)CC2)cc1 [gallium-68 labelled] — absorbed dose coefficient (extrapolated to adult male; C57BL/6 mice, spleen): 0.00746 mGy/MBq
COc1ccc(CNC(=O)CC[C@@H](C)[C@H]2CC[C@H]3[C@@H]4CC[C@@H]5CC(=O)CC[C@]5(C)[C@H]4CC[C@]23C)cc1 — Kd (Nuclear receptor ROR-gamma (RORC, Homo sapiens, UniProt P51449); binding, MST): 0.618 µM
N=C(CCl)NCCNc1c2c(c(NCCNC(=N)CCl)c3sccc13)C(=O)c1ccccc1C2=O — Kd (AURKA; binding, BLI): 29.9 µM
CCC(=O)N(C)c1ccc(Cl)c(Cl)c1 — cells with multiple aberrations (CHO-WBL; 0.13 mg/mL, 3 h, without S9 activation): 0%
Cc1cc(C)c(S(=O)(=O)N(CC(=O)O)c2ccc(Nc3ccnc(N4CCCC4)n3)cc2)c(C)c1 — Kd (Heat shock protein HSP 90-alpha (HSP90AA1, Homo sapiens, UniProt P07900, R46A); binding, biolayer interferometry; mutant R46A): 6.53 µM
[3H]CC([3H])C(=O)NCc1cc(C(=O)NCCN2CCC(N3CCC(n4c(=O)[nH]c5ccccc54)CC3)CC2)cc(C(=O)NCCN2CCN(CCCCC3CCN(CC(=O)N4c5ccccc5NC(=O)c5ccccc54)CC3)CC2)c1 (stereo not shown) — Kd (CHRM2; binding, radioligand): 8.1e-05 µM
C[n+]1cc(NC(=O)c2ccc3ccc4ccc(C(=O)Nc5cc6ccccc6[n+](C)c5)nc4c3n2)cc2ccccc21 — Kd (MYC promoter G4 DNA; binding, native ESI-MS; 100 mM trimethylammonium acetate; 1 mM KCl): 0.57 µM
Cc1[nH]c2c(O)c3c(c(O)c2c1C(=O)NC1CCNCC1)C(=O)c1ccccc1C3=O — Kd (AURKA; binding, BLI): 32.4 µM
CCCCCCOc1ccc(C(=O)OCC[N+]2(C)CC=CCC2)cc1 (stereo not shown) — Kb (CHRM2; inositol phosphate accumulation, antagonist, Schild analysis; CHO co-expressing G15; with: carbachol): 2 µM
C[C@H](N)C(=O)N[C@H](CCC(=O)O)C(N)=O — Kd (NOD2; binding, SPR; pH 6.5): 0.012 to 0.024 µM
[64Cu+2].c1ccc(CNCc2ccc(CN3CCCN4CCNCCCN(CC4)CC3)cc2)nc1 — tissue uptake (CXCR4; NOD/SCID mouse, U87 and U87-stb-CXCR4 xenografts, bladder; iv, 480 min, ex vivo): 1.22 ± 0.41 %ID/g
Cc1nn(CCO)c2ncc(C(=O)c3cc(Cl)ccc3O)cc12 — Kd (Heat shock protein 90, N-terminal domain (Plasmodium falciparum, UniProt Q8IC05); binding, SPR): 3.35 µM

A few entries again:
C[C@H](N)C(=O)N[C@H](CCC(=O)O)C(N)=O — Kd (NOD2; binding, SPR; pH 6.5): 0.012 to 0.024 µM
[64Cu+2].c1ccc(CNCc2ccc(CN3CCCN4CCNCCCN(CC4)CC3)cc2)nc1 — tissue uptake (CXCR4; NOD/SCID mouse, U87 and U87-stb-CXCR4 xenografts, bladder; iv, 480 min, ex vivo): 1.22 ± 0.41 %ID/g
Cc1nn(CCO)c2ncc(C(=O)c3cc(Cl)ccc3O)cc12 — Kd (Heat shock protein 90, N-terminal domain (Plasmodium falciparum, UniProt Q8IC05); binding, SPR): 3.35 µM
